Measurements from different studies.
Each line is one published result; not all experiments were run side by side. Several values in a cell are separate wells, animals, samples, runs or records. ± marks the error that the study gave.

`CC(C)(C)[C@H](NC(=O)C(F)(F)F)C(=O)N1C[C@H]2[C@@H]([C@H]1C(=O)N[C@H](C#N)C[C@@H]1CCNC1=O)C2(C)C` has a CC50 of greater than 100 µM (RD; cytotoxicity).
Under “minimum cytotoxic concentration”, `C[C@H](NP(=O)(OC[C@@]1(F)O[C@@H](n2ccc(N)nc2=O)C(F)(F)[C@@H]1O)Oc1ccccc1)C(=O)OCc1ccccc1` (stereo partly drawn) is recorded as greater than 100 µM (HEL embryonic lung fibroblasts; cell morphology, microscopy).
With `C=C(C)[C@]12C[C@@H](C)[C@@]34O[C@](c5ccccc5)(O[C@@H]1[C@@H]3[C@@H]1O[C@]1(CO)[C@@H](O)[C@]1(O)C(=O)C(C)=C[C@H]14)O2` the IC50 was 19.7 ± 1.6 µM (MT-4; cell viability).
Under “lowest cytotoxic concentration”, `CC[C@H](C)[C@H](NC(=O)[C@H](CO)NC(=O)[C@@H]1CCCN1C(=O)[C@H](CO)NC(=O)[C@H](CCSC)NC(=O)CNC(=O)CNC(=O)CNC(=O)[C@H](CCCCN)NC(=O)[C@H](CC(C)C)NC(=O)[C@H](CCCCN)NC(=O)[C@H](CC(C)C)NC(=O)[C@H](CCCCN)NC(=O)[C@H](CC(C)C)NC(=O)[C@H](CC(C)C)NC(=O)[C@H](CC(C)C)NC(=O)CNC(=O)[C@H](CC(C)C)NC(=O)[C@H](CC(C)C)NC(=O)[C@H](CCCCN)NC(=O)[C@@H](N)CCCCN)C(=O)N[C@@H](CC(C)C)C(=O)N[C@@H](CCCCN)C(=O)N[C@@H](Cc1c[nH]cn1)C(=O)N[C@@H](Cc1c[nH]c2ccccc12)C(=O)N[C@@H](CO)C(=O)N[C@@H](CCCNC(=N)N)C(=O)N[C@@H](CCC(N)=O)C(=O)O` is recorded as 256 µg/mL (HEK-293T; cell death; 24 h, 10% cell death).
`C=C(C)[C@]12C[C@@H](C)[C@@]34O[C@](/C=C/C=C/CCCCCCCCC)(O[C@@H]1[C@@H]3[C@@H]1O[C@]1(CO)[C@@H](O)[C@]1(O)C(=O)C(C)=C[C@H]14)O2` has an IC50 of 9.4 µM (MT4; cell growth or viability, ATP luminescence).
`CO[C@H]1/C=C\C=C(/C)C(=O)NC2=CC(=O)C(NCCN(C)C)=C(C[C@@H](C)C[C@H](OC)[C@H](O)[C@@H](C)/C=C(\C)[C@@H]1OC(N)=O)C2=O` gave a CC50 of 4.3 ± 0.9 µM (TREx BCBL1-Rta; MTS).
With `CNC(=O)[C@@H](NC(=O)[C@H](CC(C)C)[C@H](O)C(=O)NO)C(C)(C)C` the remaining activity was 77.8% and 72.3% and 74.9% (Daboia russelii venom proteases (SVMP); protease activity, inhibitor; AP population; 1 µM, added: azocasein substrate; relative to: venom alone).
Under “subjects with treatment-boosted ADA”, `CC[C@H](C)[C@H](NC(=O)[C@H](CC(C)C)NC(=O)[C@H](Cc1c[nH]c2ccccc12)NC(=O)[C@H](CCC(N)=O)NC(=O)[C@@H](NC(=O)[C@H](Cc1ccccc1)NC(=O)[C@H](C)NC(=O)[C@H](CCCCNC(=O)COCCOCCNC(=O)COCCOCCNC(=O)CC[C@H](NC(=O)CCCCCCCCCCCCCCCCCCC(=O)O)C(=O)O)NC(=O)[C@H](CCC(N)=O)NC(=O)[C@H](C)NC(=O)[C@@H](NC(=O)[C@H](CCCCN)NC(=O)[C@H](CC(=O)O)NC(=O)[C@H](CC(C)C)NC(=O)C(C)(C)NC(=O)[C@@H](NC(=O)[C@H](CO)NC(=O)[C@H](Cc1ccc(O)cc1)NC(=O)[C@H](CC(=O)O)NC(=O)[C@H](CO)NC(=O)[C@@H](NC(=O)[C@H](Cc1ccccc1)NC(=O)[C@@H](NC(=O)CNC(=O)[C@H](CCC(=O)O)NC(=O)C(C)(C)NC(=O)[C@@H](N)Cc1ccc(O)cc1)[C@@H](C)O)[C@@H](C)O)[C@@H](C)CC)[C@@H](C)CC)C(C)C)C(=O)N[C@@H](C)C(=O)NCC(=O)NCC(=O)N1CCC[C@H]1C(=O)N[C@@H](CO)C(=O)N[C@@H](CO)C(=O)NCC(=O)N[C@@H](C)C(=O)N1CCC[C@H]1C(=O)N1CCC[C@H]1C(=O)N1CCC[C@H]1C(=O)N[C@@H](CO)C(N)=O` is recorded as 0% (refers to: anti-drug antibodies; healthy human subjects; 1.5 mg multiple ascending, titer increase ≥4-fold).
For `CC[C@H](C)[C@H](NC(=O)[C@H](CO)NC(=O)[C@@H]1CCCN1C(=O)[C@H](CO)NC(=O)[C@@H](N)CCSC)C(=O)N[C@@H](CC(C)C)C(=O)N[C@@H](CCCCN)C(=O)N[C@@H](Cc1c[nH]cn1)C(=O)N[C@@H](Cc1c[nH]c2ccccc12)C(=O)N[C@@H](CO)C(=O)N[C@@H](CCCNC(=N)N)C(=O)N[C@@H](CCC(N)=O)C(=O)NCC(=O)NCC(=O)NCC(=O)N[C@@H](CCCCN)C(=O)N[C@@H](CCCCN)C(=O)N[C@@H](CC(C)C)C(=O)N[C@@H](CC(C)C)C(=O)NCC(=O)N[C@@H](CC(C)C)C(=O)N[C@@H](CC(C)C)C(=O)N[C@@H](CC(C)C)C(=O)N[C@@H](CCCCN)C(=O)N[C@@H](CC(C)C)C(=O)N[C@@H](CCCCN)C(=O)N[C@@H](CC(C)C)C(=O)N[C@@H](CCCCN)C(=O)O`, “lowest cytotoxic concentration” read 256 µg/mL (HEK-293T; cell death; 24 h, 10% cell death).
`Nc1ncnc2c([C@@H]3N[C@H](CO)[C@@H](O)[C@H]3O)c[nH]c12` has an inhibition of 1.3% (Venezuelan equine encephalitis virus; viral replication; HeLa, SH3; 50 µM).
`Cn1cnc(Cn2c(=O)[nH]/c(=N\c3cc4cn(C)nc4cc3Cl)n(Cc3cc(F)c(F)cc3F)c2=O)n1`: “patients with adverse event” 0% (human, normal renal function; oral, 375 mg, treatment-related decreased GFR, Mild severity).
With `C[C@H]1CCCC(=O)CCC/C=C/c2cc(O)cc(O)c2C(=O)O1` the CC50 was 183 ± 3.7 µM (BeWo; 24 h, vehicle co-incubation).

For quick reference, copied from above:
Under “minimum cytotoxic concentration”, `C[C@H](NP(=O)(OC[C@@]1(F)O[C@@H](n2ccc(N)nc2=O)C(F)(F)[C@@H]1O)Oc1ccccc1)C(=O)OCc1ccccc1` (stereo partly drawn) is recorded as greater than 100 µM (HEL embryonic lung fibroblasts; cell morphology, microscopy).
